# Results of several laboratories.
# Several values in a cell are separate wells, animals, samples, runs or records.
# Organism: Pseudomonas aeruginosa
Compound,test,test system,conditions,scale,endpoint,value
COc1c(C)c(O)c(C(=O)C=Cc2ccccc2)c(OC)c1C,"microbial killing, broth dilution",ATCC27853,,,MBC,> 5000 µg/mL
CC(CCCOC(=O)CCC[N+](C)(C)C)C1CCC2C3CCC4CC(OC(=O)CCC[N+](C)(C)C)CCC4(C)C3CC(OC(=O)CCC[N+](C)(C)C)C12C (centres unmarked),"microbial growth, disc diffusion",ATCC27853,"250 µg/disc, 24 h",,inhibition zone,10 mm
O=C(NCc1cc(Br)cc(Br)c1OC(=O)c1ccccc1[N+](=O)[O-])c1ccccc1Cl,elastin-Congo red,PAO1 wild type,"100 µM, 20 h",relative to: DMSO,elastase production,126%
CC[C@H](C)CCCCC(=O)N[C@@H](CCN)C(=O)N[C@H](C(=O)N[C@@H](CCN)C(=O)N[C@H]1CCNC(=O)[C@H]([C@@H](C)O)NC(=O)[C@H](CCN)NC(=O)[C@H](CCN)NC(=O)[C@H](CC(C)C)NC(=O)[C@@H](CC(C)C)NC(=O)[C@H](CCN)NC1=O)[C@@H](C)O,,"BAA-2797, BALB/c mouse peritonitis, kidney",dose not given,,bacterial load,2.81 log CFU and 2.56 log CFU and 2.38 log CFU and 2.68 log CFU and 2.51 log CFU
CCCC(=O)C#Cc1ccc(F)c(F)c1,static biofilm,PA14,"10 µM, 24 h, static",relative to: DMSO,biofilm formation,66%
CC(CCCOC(=O)CCC[N+](C)(C)C)C1CCC2C3CCC4CC(OC(=O)CCC[N+](C)(C)C)CCC4(C)C3CCC12C (centres unmarked),"microbial growth, disc diffusion",ATCC27853,"31.2 µg/disc, 24 h",,inhibition zone,9 mm
COc1c(C)c(OCc2ccccc2)c(C)c(OCc2ccccc2)c1C(=O)/C=C/c1ccccc1,"microbial killing, broth dilution",ATCC27853,,,MBC,> 5000 µg/mL
O=C(Cc1ccc(Br)cc1)N[C@H]1CCOC1=O,elastin-Congo red,PAO1 wild type,"100 µM, 20 h",relative to: DMSO,elastase production,82.3%
CCCCCCCCCC(=O)Oc1c(C)c(OC)c2c(c1C)OC(=O)C(CCCCCCCC)C2(O)C=Cc1ccccc1 (centres unmarked),"microbial growth, well diffusion",ATCC27853,5 µg/mL,,inhibition zone,10 mm
CC(C)C1=CC2=CCC3C(C)(C(=O)OCCC[N+](C)(C)C)CCCC3(C)C2CC1 (centres unmarked),"microbial growth, disc diffusion",ATCC27853,"250 µg/disc, 24 h",,inhibition zone,11 mm
CCCC(O)c1nn[nH]c1-c1ccc(O)c(OC)c1 (centres unmarked),"microbial growth, absorbance",,"100 µM, 24 h",,activity vs control,93%

# Excerpt of the above:
Compound,test,test system,conditions,scale,endpoint,value
CC(CCCOC(=O)CCC[N+](C)(C)C)C1CCC2C3CCC4CC(OC(=O)CCC[N+](C)(C)C)CCC4(C)C3CCC12C (centres unmarked),"microbial growth, disc diffusion",ATCC27853,"31.2 µg/disc, 24 h",,inhibition zone,9 mm
